Measured values from different studies.
Numbered parts are unrelated; each lists some results of a single study.

Study 1
Target: RNA binding protein fox-1 homolog 2, RRM domain, GST-SBP tag (RBFOX2, Homo sapiens, UniProt O43251-10, residues 100-194)
Method: RNA Bind-n-Seq
Form: RNA
Sample: in vitro
Tested at: 365 nM
Setting: natural RNA segment, single round, ends assumed
Relative to: no-protein control
Reading: higher = stronger binding
Endpoint: RBNS enrichment (R)
Constant ends, left off below: GGGAGUUCUACAGUCCGACGAUC … UGGAAUUCUCGGGUGCCAA
Target sequence (chain): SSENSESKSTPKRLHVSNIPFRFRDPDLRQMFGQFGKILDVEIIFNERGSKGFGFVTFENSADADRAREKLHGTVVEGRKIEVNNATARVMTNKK
Oligonucleotide = AGCUCAUGCAUUUCUGAUUAUACAAAACAGUUUGCAGUAGGUUAUUUGUCAUUUCAGUUUUUUACUGAAAUUUGAGCUAAACAUUUUUACAUGUAAAUACUUGUAUUUAC; result = 0.45
Oligonucleotide = UUACCGUGUAAAUGAAUAUUUGUAUGAUUAAAUUAACACACACAAAAAAAAAAACCCCGCCUUUAUCUGUGUGCGUGUGAUUCUGUUGCAUCCUCGAGCUGCUGCCUGCA; result = 11.5
Oligonucleotide = UGGAAAAUUAAACUUUAAUUUAUUGACAUUGUACAUAGCUCUGUGUAAAUAGAAUUGCAACUGUCAGGUUUUGUGUUCUUGUUUUCCUUUAGUUGGGUUUAUUUCCAGGU; result = 0.402
Oligonucleotide = UCUGUUUUUUCCCAGUAGUACAAGGCCAGUGUCCUGAGCAAUGGGACCAGUUCUCCACCUGCUCUGACUGCUCAGGAGGCCUGGGUUCCCAUCUACCCUGUCACACUUCA; result = 0.337
Oligonucleotide = GACAAGUUCAUUUCAUCUUGAGAUCAUGGUGAAAUAUUUUGGAUAUAUAAAUUCCUUAAGCUAUUGUAACCAUGUUUUAUUGCAAAGAUGUAAAAUAUGCCAGAUGUGUG; result = 0.407
Oligonucleotide = GUGGCAUUUACUGCUUCUUGAUCUCUAACCACUUGAGUUGGGUCAAGAGGAUUCUGGGCGUGGCAAGCUCUACAGGUCAAGCUGUUUCCUCUAUCCUGGUAACUCCUCAC; result = 0.286
Oligonucleotide = AACUACAGAGGGAUUAUGACAGGUCCUUGAGCCGCCUAACACUGGAUGACAUCGAACGUUUGGCCAGCCGCUUUCUACACCCUGAAGUGACUGAGGCUAUGGAAAAAGGG; result = 0.93
Oligonucleotide = CUCGACUUAGGAUGGACAGACACAGAGGGGUGCCUUCUAUGGUGCCAGCCUGUCAUGCCCAGUCCCUCCCACCAGUGCCCUGGGCCUGUCCUGGGUCCCCUGACACAUUU; result = 0.157
Oligonucleotide = GGAAACCCCAGCUCCCCCAACCCUGCUACCACUGGCCUGCCACCUUGACCCUGCUCAACCUUCUCCCUCUAGCACAAGGGAACAUUUCUAGAAAAGUAAAAUCUACUUUU; result = 0.904
Oligonucleotide = UGUGUGGUGAGGAACGCUCUCUUCUGGCCUCAAGCUCUUUGCCUCUUUGCCUUCAGCACCCUUGAUGUUCAUGGUUUACAUGGGUGGGGGUGGGAUGUAGAUAUGUGGGG; result = 0.377
Oligonucleotide = CCCAGGAAAGGGCCAGCUUGGCGGGAAGGGGCUCUCCCUAGGGGUGCAGCUGGGAGGAGGUCCGAGUACCUCUUCAGUGGCUCUCAGGGGCCAUUUCUGUGGAAGGGGUA; result = 0.9
Oligonucleotide = AAGGAAAAAAAAAUUCACACCUGGCUUUCAGGUAACUGACUUUGGAUUCUUACAAGCAAAGGUCAUUGUGUUUUUUCUUGAGUAGAUACCUAAUAAAUUUUGCUUGAAAG; result = 0.519

Study 2
Target: Histone acetyltransferase KAT6A, winged helix 1, GST fusion (KAT6A, Homo sapiens, UniProt Q92794, residues 1-85)
Method: protein binding microarray
Form: double-stranded DNA, one strand shown
Sample: in vitro
Tested at: not given
Setting: 8-mer, flanks averaged, mean of 2 arrays, mostly near background
Relative to: not given
Reading: higher = stronger binding
Endpoint: E-score
Residues (chain): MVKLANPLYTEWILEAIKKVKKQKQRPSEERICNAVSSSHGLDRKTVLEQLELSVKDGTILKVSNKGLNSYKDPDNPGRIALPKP
Oligonucleotide = ACCGAAGG; result = -0.0115
Oligonucleotide = GCTCCGCA; result = 0.161
Oligonucleotide = CGAGGGCG; result = 0.331
Oligonucleotide = GTGTTAAA; result = -0.15
Oligonucleotide = AACAAATC; result = -0.141
Oligonucleotide = GGGGCCCA; result = -0.0781
Oligonucleotide = ATGAAGTC; result = -0.186
Oligonucleotide = ACCGGCCG; result = 0.434
Oligonucleotide = GAAAAGCC; result = 0.131
Oligonucleotide = CTCCGGCC; result = 0.246
Oligonucleotide = GTCCGTAA; result = 0.236
Oligonucleotide = AATCATGA; result = -0.195
Oligonucleotide = CCCTCGGC; result = 0.237
Oligonucleotide = AGCGGATA; result = 0.208
Oligonucleotide = GAATTGAA; result = -0.245
Oligonucleotide = AAAAAGTT; result = -0.224
Oligonucleotide = GCCGTTAA; result = 0.208
Oligonucleotide = AAAAGCAG; result = -0.163
Oligonucleotide = AGCATCTA; result = 0.0409
Oligonucleotide = TAGGCAGA; result = -0.117
Oligonucleotide = CAATGAAC; result = -0.192
Oligonucleotide = GCGTCTGA; result = 0.0771

Study 3
Target: Sal-like protein 4, full length isoform A (SALL4, Homo sapiens, UniProt Q9UJQ4, residues 1-1053)
Chain of UniProt Q9UJQ4 (whole entry, looked up): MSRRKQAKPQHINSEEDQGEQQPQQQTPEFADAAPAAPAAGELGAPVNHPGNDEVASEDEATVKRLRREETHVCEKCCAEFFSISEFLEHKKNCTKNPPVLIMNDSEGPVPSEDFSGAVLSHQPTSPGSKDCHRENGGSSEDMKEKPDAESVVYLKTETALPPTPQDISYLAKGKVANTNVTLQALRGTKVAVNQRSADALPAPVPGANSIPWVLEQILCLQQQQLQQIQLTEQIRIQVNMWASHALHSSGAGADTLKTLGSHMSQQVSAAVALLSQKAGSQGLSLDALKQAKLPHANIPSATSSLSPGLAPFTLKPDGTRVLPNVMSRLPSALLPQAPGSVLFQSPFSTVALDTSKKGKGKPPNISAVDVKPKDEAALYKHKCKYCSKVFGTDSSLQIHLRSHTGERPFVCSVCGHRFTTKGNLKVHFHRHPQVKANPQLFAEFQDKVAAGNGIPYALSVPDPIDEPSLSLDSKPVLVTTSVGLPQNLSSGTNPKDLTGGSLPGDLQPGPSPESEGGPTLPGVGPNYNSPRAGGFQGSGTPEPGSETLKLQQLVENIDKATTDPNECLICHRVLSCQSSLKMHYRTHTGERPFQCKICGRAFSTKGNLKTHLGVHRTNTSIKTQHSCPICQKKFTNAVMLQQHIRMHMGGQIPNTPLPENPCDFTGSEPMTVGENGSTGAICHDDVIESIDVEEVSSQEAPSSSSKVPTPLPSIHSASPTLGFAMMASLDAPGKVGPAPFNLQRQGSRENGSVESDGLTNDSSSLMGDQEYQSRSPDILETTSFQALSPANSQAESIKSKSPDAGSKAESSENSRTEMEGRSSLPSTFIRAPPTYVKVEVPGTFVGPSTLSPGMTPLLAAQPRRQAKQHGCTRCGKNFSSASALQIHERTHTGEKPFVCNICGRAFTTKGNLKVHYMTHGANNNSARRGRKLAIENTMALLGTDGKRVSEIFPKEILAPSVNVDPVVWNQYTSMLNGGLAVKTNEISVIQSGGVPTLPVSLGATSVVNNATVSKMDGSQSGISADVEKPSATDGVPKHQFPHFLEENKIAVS
Method: universal PBM
Form: double-stranded DNA, one strand shown
Sample: in vitro
Tested at: 600 nM
Setting: 8-mer, flanks averaged, mean of replicates
Reading: higher = stronger binding
Endpoint: E-score
Oligonucleotide = GGATTGTA; result = 0.214
Oligonucleotide = GCACACGA; result = -0.0637
Oligonucleotide = TACGAAGA; result = 0.193
Oligonucleotide = TCCGAAGA; result = -0.0226
Oligonucleotide = CAGCAACA; result = 0.106
Oligonucleotide = CGCTTCAG; result = -0.092
Oligonucleotide = ACATAAAA; result = 0.27
Oligonucleotide = AGCTGACC; result = -0.156
Oligonucleotide = ATGCGGTG; result = -0.315
Oligonucleotide = GCCTACCA; result = -0.0948
Oligonucleotide = GTACTGAA; result = 0.188
Oligonucleotide = TCAGTTCA; result = 0.0601
Oligonucleotide = ACCCCGCG; result = -0.226
Oligonucleotide = ATTATTTC; result = 0.39
Oligonucleotide = TAGTTGCA; result = 0.0681
Oligonucleotide = ATAGGCAA; result = 0.127

Study 4
Target: RING finger protein unkempt homolog, zinc fingers 1-6, GST-SBP tag (UNK, Homo sapiens, UniProt Q9C0B0, residues 30-357)
Chain of UniProt Q9C0B0 (30-357, looked up): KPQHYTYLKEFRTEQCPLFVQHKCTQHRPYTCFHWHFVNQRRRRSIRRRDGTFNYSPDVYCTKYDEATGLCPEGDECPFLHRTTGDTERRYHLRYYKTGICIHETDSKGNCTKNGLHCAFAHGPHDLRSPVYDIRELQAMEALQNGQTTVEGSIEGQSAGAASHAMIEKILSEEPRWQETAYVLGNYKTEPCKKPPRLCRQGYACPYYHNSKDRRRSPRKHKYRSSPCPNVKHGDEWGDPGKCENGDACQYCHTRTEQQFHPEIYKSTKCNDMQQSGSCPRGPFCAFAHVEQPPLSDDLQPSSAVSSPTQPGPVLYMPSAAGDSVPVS
Method: RNA Bind-n-Seq
Form: RNA
Sample: in vitro
Tested at: not given
Setting: RNA with constant flanks, human-mouse chimeric sites, ends assumed
Relative to: input RNA pool
Reading: higher = stronger binding
Endpoint: bound/input enrichment
Constant ends, left off below: GGGAGUUCUACAGUCCGACGAUC … CAACAGAGGAUUGAGCAUCA
Oligonucleotide = UCAGUCUUUUUGUACAGCUUUGUAAAUUCUUAACAUUAAUUUGUAAACAUGUUUAUUUUGUUUGGGUAAUUUGGUUCAUUAAGUACAUAGCUAAGGUAAUGAACAUCUUUUUCAGUAAUU; result = 0.347 ratio
Oligonucleotide = GUUGCCAGCUUCCGGUUCCGUUGGGCUCGGUUCUCUCCUGAGCUACGUGUCUCUACGUUUUAGGUGUGCCAUCCAACAAACAUGGAUCAGGUAAUGCAGUUUGUGGAGCCCAGCCGGCAG; result = 0.115 ratio
Oligonucleotide = CUUCGGAAAAAAAAAUUACCUUUUCUGACAGUGCUUUCCCUCCCAUAGAUCCACGUUCAAGCUCAAAGAGCAAAGGCUCCGCAAACAGCUCAAACAUCUGAUGAAGAAAGAUUUCUGAGA; result = 0.443 ratio
Oligonucleotide = UCUUAACGUCCAUUUAAAACUUAUUUUUAUAGCUAGAUAAAUAUUGUUAGUCUUAGACAAUAGCUCACAUUUUUUGAGAAGCAUGCCCUCCCUAUCCAUUUGUCUUAUAACAUGACCCAG; result = 34 ratio
Oligonucleotide = AAAGAGUGGAUAGAGUGUGCACACGGGAUCGGUGGGACUCGGGCAGAAAAGGAGUGCAAGAUAGAAUUCGAUGACUUCGAAGAGUGCUUGCUUCGGUACAAAACGAUGAGGCGAAUGCAU; result = 0.34 ratio
Oligonucleotide = GGCCUGGGACCGUCCUGGGCUAGUACAAAUAGCGGCAUGGAGGCUCAGAGAGGAAAGUUUGUUAGUGGAGGCAGUGGUAGAGGCCGUCAUGUACGGUCUUUACACGAAUAGAUGUGUUCU; result = 0.758 ratio
Oligonucleotide = GUUGCCAGCUUCCGGUUGGCCUCCAUCCGGUUCUCUCCUGAGCUACGUGUCUCUACGCUCUCAAUCCGCCAUCCAACAAACAUGGAUCAGGUAAUGCUGCAGUUUGUGCCCAGCCGGCAG; result = 0.18 ratio
Oligonucleotide = CCCCAAUUACCAUCUGUGGUCUGGAACCUGCAUUCUUUUUUUAAAAAACAUGUAUACAUUUUAGGGCUGUAGAUUUAUUUUCCUGGUUUUGUUUUUCAUUGCUGACUUUUGAGCACAGAA; result = 0.565 ratio
Oligonucleotide = GAAUCCUCCCGUGCAAAAUUUUGCAACACCAAGCUCACAGCAGCAGCAUCUUAGUCACAGUUAGGUAGUUUUGGGGCUCUGUGGCCAGGGUUUUAUUCACAUGCAGGUUUGGAAAAUGUA; result = 3.88 ratio
Oligonucleotide = GUGACUGGUGUUAAGAUUUCCCCUCAGCAAAGAAGUGUAGCAGUGACCAUAAUUCCAUCUAUAGUGAGUGCCAGUCAGAUUGUGGAGCUGGUCCCAGACCUCAGUUUAGACAUGGGAACU; result = 1.2 ratio
Oligonucleotide = CUGAAAAACACAGAUAUCAAAGUUGUUGACUUUGGAAGUGCAACGUAUGAUGAUGAACAUCACAGUACUUUGGUGUCUACCCGGCACUACAGGGCUCCCGAGGUCAUUUUGGCUCUAGGU; result = 0.271 ratio

Study 5
Target: Transcriptional repressor CTCF (CTCF, Homo sapiens, UniProt P49711, residues 1-727, full length assumed)
Chain of UniProt P49711 (whole entry, looked up): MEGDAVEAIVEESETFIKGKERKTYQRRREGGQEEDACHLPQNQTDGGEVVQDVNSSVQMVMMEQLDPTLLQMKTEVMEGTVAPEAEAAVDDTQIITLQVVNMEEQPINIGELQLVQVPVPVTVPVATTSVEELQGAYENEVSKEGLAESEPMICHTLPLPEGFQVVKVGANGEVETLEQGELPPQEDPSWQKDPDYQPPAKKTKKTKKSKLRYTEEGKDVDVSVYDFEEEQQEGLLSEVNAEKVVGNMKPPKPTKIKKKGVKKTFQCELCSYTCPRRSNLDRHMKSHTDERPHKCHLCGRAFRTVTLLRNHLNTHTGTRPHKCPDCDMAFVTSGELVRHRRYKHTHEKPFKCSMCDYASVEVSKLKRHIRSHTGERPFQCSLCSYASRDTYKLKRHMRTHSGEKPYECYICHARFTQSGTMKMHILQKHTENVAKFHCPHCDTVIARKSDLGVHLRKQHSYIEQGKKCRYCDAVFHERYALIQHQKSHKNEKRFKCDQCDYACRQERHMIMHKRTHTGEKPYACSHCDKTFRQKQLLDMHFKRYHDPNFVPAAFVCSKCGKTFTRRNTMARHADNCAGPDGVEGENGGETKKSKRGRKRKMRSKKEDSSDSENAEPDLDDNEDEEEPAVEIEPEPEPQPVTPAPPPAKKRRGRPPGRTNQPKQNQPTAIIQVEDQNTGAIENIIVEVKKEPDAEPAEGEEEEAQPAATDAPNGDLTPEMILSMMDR
Method: protein-binding microarray
Form: double-stranded DNA, one strand shown
Sample: in vitro
Tested at: not given
Setting: k-mer, scored over probes, only values ≥0.25
Reading: higher = stronger binding
Endpoint: E-score
Oligonucleotide = AAAAATAT; result = 0.314
Oligonucleotide = AATAATAC; result = 0.305
Oligonucleotide = CGCGCTTA; result = 0.276
Oligonucleotide = TAACAAAA; result = 0.296
Oligonucleotide = ACAATTAT; result = 0.28
Oligonucleotide = GGTTTCTA; result = 0.277
Oligonucleotide = CGCGCAAG; result = 0.275
Oligonucleotide = ATAAGCGC; result = 0.293
Oligonucleotide = ATTTACGC; result = 0.312
Oligonucleotide = ATAATGAA; result = 0.284
Oligonucleotide = CCCTAGCG; result = 0.412
Oligonucleotide = GCATATAA; result = 0.271
Oligonucleotide = ATAACAGA; result = 0.277
Oligonucleotide = ACAAAACA; result = 0.276
Oligonucleotide = TGTTAACA; result = 0.269
Oligonucleotide = AAGATAAT; result = 0.267
Oligonucleotide = GAATAACA; result = 0.264
Oligonucleotide = AATATGCG; result = 0.337
Oligonucleotide = AAATACAT; result = 0.301
Oligonucleotide = GCGCCAAC; result = 0.299
Oligonucleotide = GATATGGA; result = 0.289
Oligonucleotide = AAACAATA; result = 0.302
Oligonucleotide = ATATCGCG; result = 0.262
Oligonucleotide = AACAAAAA; result = 0.29
Oligonucleotide = AAAAAGTA; result = 0.277

Excerpt of the above (study 5):
Oligonucleotide = AAAAATAT; result = 0.314
Oligonucleotide = AATAATAC; result = 0.305
Oligonucleotide = CGCGCTTA; result = 0.276
Oligonucleotide = TAACAAAA; result = 0.296
Oligonucleotide = ACAATTAT; result = 0.28
Oligonucleotide = GGTTTCTA; result = 0.277
Oligonucleotide = CGCGCAAG; result = 0.275
Oligonucleotide = ATAAGCGC; result = 0.293
Oligonucleotide = ATTTACGC; result = 0.312
Oligonucleotide = ATAATGAA; result = 0.284
Oligonucleotide = CCCTAGCG; result = 0.412
